Assay results from different studies.
Every numbered part comes from another study and shows a few of its results, in no order.

Block 1
Target: Protein C-ets-1 (ETS1, Homo sapiens, UniProt P14921, residues 1-441, full length assumed)
Technique: protein-binding microarray
Molecule type: double-stranded DNA, one strand shown
Matrix: in vitro
Concentration: not given
Setting: k-mer, scored over probes, only values ≥0.25
Reading: higher = stronger binding
Construct (chain): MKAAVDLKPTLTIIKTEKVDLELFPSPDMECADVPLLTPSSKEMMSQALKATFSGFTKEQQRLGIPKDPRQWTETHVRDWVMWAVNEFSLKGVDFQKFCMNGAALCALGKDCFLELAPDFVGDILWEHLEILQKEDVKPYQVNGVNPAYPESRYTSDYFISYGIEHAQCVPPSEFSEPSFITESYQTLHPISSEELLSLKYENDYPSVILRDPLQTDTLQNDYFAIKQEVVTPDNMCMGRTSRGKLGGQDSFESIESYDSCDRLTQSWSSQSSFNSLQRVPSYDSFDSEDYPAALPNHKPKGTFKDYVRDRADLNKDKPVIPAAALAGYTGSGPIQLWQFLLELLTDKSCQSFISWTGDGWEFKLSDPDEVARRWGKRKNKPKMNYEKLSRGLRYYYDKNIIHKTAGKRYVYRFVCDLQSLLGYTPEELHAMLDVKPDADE
Oligonucleotide	E-score
AACGGACA	0.251
GTTTCCGA	0.416
CCGTCCCC	0.285
GGAAGGCA	0.326
CACAGGAA	0.439

Block 2
Target: Histone acetyltransferase KAT6A, winged helix 1, GST fusion (KAT6A, Homo sapiens, UniProt Q92794, residues 1-85)
Technique: protein binding microarray
Molecule type: double-stranded DNA, one strand shown
Matrix: in vitro
Concentration: not given
Setting: 8-mer, flanks averaged, mean of 2 arrays, mostly near background
Reference: not given
Reading: higher = stronger binding
Target sequence (chain): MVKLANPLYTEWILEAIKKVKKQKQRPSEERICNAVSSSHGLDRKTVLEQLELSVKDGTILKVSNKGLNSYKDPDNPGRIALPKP
Oligonucleotide	E-score
GCCACGAA	-0.164
GGAGGGCC	-0.0209
ACACGGGA	0.208
ATTAAAAA	-0.0914

Block 3
Target: Sal-like protein 4, full length isoform B (SALL4, Homo sapiens, UniProt Q9UJQ4-2, residues 1-616)
Technique: universal PBM
Molecule type: double-stranded DNA, one strand shown
Matrix: in vitro
Concentration: not given
Setting: 8-mer, flanks averaged, mean of replicates
Reading: higher = stronger binding
Oligonucleotide	E-score
AGTGGTTG	-0.0169
GTGTCGAA	-0.0693
CCGACTAA	-0.0143

Single results of other studies
Molecule	target	assay	test system	setting	how to read	endpoint	value
PhoQ, residues 284 288 289 292 302 303 SNSSNI	PhoP, residues 12 14 15 18 19 NIMAP (Escherichia coli, UniProt P23836)	Sort-seq, measured: YFP reporter	E. coli	PhoQ-PhoP variant library, with: 10 µM Mg2+	reference: high Mg2+ state, higher = stronger signaling	fold induction	0.64

For quick reference, copied from above (block 3):
Oligonucleotide	E-score
CCGACTAA	-0.0143
GTGTCGAA	-0.0693
